Measurements of several laboratories.
Lines come from different studies, so protocols differ. Several values in a cell are separate wells, animals, samples, runs or records. Numbers after ± are the reported error.
Fructose-1,6-bisphosphate aldolase/phosphatase: Fructose-1,6-bisphosphate aldolase/phosphatase (Helicobacter pylori, UniProt Q9ZMG8)
Oprk1: Kappa-type opioid receptor (Oprk1, Mus musculus, UniProt P33534)
FURIN: Furin (FURIN, Homo sapiens, UniProt P09958)

CCCCCCCCCCCCC/C=C/[C@@H](O)[C@H](CO)N(C)C  Ki (SPHK2 (Homo sapiens, UniProt Q9NRA0); enzyme activity, inhibitor, FlashPlate): 18 µM
OC[C@H]1O[C@@H](n2cnc3c2N=CNC[C@H]3O)[C@H](O)[C@@H]1O  Ki (Fructose-1,6-bisphosphate aldolase/phosphatase; J99): > 10 µM
C[S+]([O-])c1ccc(C(=O)C2CCN(C3Cc4ccccc4CC3O)CC2)cc1 (racemic)  Ki (SLC18A3 (Homo sapiens, UniProt Q16572); ligand displacement, radioligand): 0.0065 µM
O=C(/C=C/c1ccoc1)N[C@H]1CC[C@@]2(O)[C@H]3Cc4cccc5c4[C@@]2(CCN3CC2CC2)[C@H]1O5  Ki (Oprk1; ligand displacement, radioligand): 0.0457 µM
L-cystine  Ki (SLC7A11 (Homo sapiens, UniProt Q9UPY5); L-glutamate uptake, competitive inhibitor; SNB-19; Na-free): 59 ± 10 µM
CC(C)[C@H](NC(=O)[C@H](CCCNC(=N)N)NC(=O)[C@H](CCCNC(=N)N)NC(=O)Cc1ccccc1)C(=O)N[C@@H](CCCNC(=N)N)C(=O)NCc1ccc(C(=N)N)cc1  Ki (FURIN; enzyme activity, inhibitor, fluorescence): 5.63e-05 µM and ~5e-05 µM
CCOC(=O)[C@@](C)(O)[C@@H]1C[C@@H](CO[Si](c2ccccc2)(c2ccccc2)C(C)(C)C)O[C@H]1n1cc(F)c(=O)[nH]c1=O  Ki (Genome polyprotein, NS5 methyltransferase domain (GP1, West Nile virus, UniProt Q9Q6P4); 2'-O methyltransferase activity, inhibitor, TLC, Cheng-Prusoff; added: SAM 80 µM, m7GpppA-RNA 0.36 µM): 14.1 µM
N[C@@H](CC(=O)O)C(=O)O  Ki (pycA (Staphylococcus aureus, UniProt A0A0H3JRU9); pyruvate carboxylation, allosteric inhibitor, MDH-coupled): 18000 ± 1000 µM
CCCCCCCCCCCCC/C=C/[C@@H](O)[C@@H](N)COP(=O)(O)OCC[N+](C)(C)C  Ki (RYR1 (Oryctolagus cuniculus, UniProt P11716); channel open probability, single channel recording, planar lipid bilayer; absence of calmodulin): 1.3 ± 0.3 µM
O=C(/C=C/c1ccoc1)N[C@H]1CC[C@@]2(O)[C@H]3Cc4ccc(O)c5c4[C@@]2(CCN3CC2CC2)[C@H]1O5  Ki (Oprk1; ligand displacement, radioligand): 0.00196 µM
CC(C)[C@H](NC(=O)[C@H](CCCNC(=N)N)NC(=O)[C@H](CCCNC(=N)N)NC(=O)[C@H](C)NC(=O)Cc1ccccc1)C(=O)N[C@@H](CCCNC(=N)N)C(=O)NCc1ccc(C(=N)N)cc1  Ki (FURIN; enzyme activity, inhibitor, fluorescence): 4.91e-05 µM and ~5e-05 µM
c1ccc(CCN2CCCCC2)cc1  Ki (DRD3 (Homo sapiens, UniProt P35462); binding; CHOp; added: [3H]YM-09151-2 0.21 nM): > 10 µM
O[C@@H]1CNC=Nc2c1ncn2[C@H]1C[C@H](O)[C@@H](CSc2ccccc2)O1  Ki (Fructose-1,6-bisphosphate aldolase/phosphatase; inhibitor; pH 7.0, 25 °C, 77 nM enzyme, added: MTA 400 µM): 0.85 ± 0.2 µM
CC(=O)N[C@@H](CC(C)C)C(=O)N[C@@H](CC(C)C)C(=O)N[C@@H](CC(C)C)C(=O)N[C@@H](CC(C)C)C(=O)N[C@@H](CCCNC(=N)N)C(=O)N[C@H](C(=O)N[C@@H](CCCNC(=N)N)C(=O)NCc1ccc(C(=N)N)cc1)C(C)(C)C  Ki (FURIN; enzyme activity, inhibitor, fluorescence): 7.86e-05 µM
O=P(O)(O)Oc1cccc(OP(=O)(O)O)c1  Ki (Signal transducer and activator of transcription 5B, SH2 (STAT5B, Homo sapiens, UniProt P51692); ligand displacement, FP): 27 µM
CC(C)[C@H](NC(=O)[C@H](CCCNC(=N)N)NC(=O)[C@@H](CCCNC(=N)N)NC(=O)[C@H](N)CCCNC(=N)N)C(=O)N[C@@H](CCCNC(=N)N)C(=O)NCc1ccc(C(=N)N)cc1  Ki (FURIN; enzyme activity, inhibitor, fluorescence): 5.1e-05 µM
NC(=O)[C@H](CO)NC(=O)CCCCCn1cc(CN(Cc2cn(CCCCCC(=O)N[C@@H](CO)C(N)=O)nn2)Cc2cn(CCCCCC(=O)N[C@@H](CO)C(N)=O)nn2)nn1  Ki (MC4R (Homo sapiens, UniProt P32245); competitive binding; HEK293 expressing MC4R and CCK2R): > 10 µM
CCC(C/C=C/c1ccccc1)(c1ccccc1)N(C)CC1CC1 (single isomer, unassigned; (+))  Ki (TMEM97 (Homo sapiens, UniProt Q5BJF2); ligand displacement, radioligand): 0.164 µM
Cc1cc(O)cc(C)c1C[C@H](N)C(=O)N[C@@H]1CCNc2ccc(Cc3cccc4ccccc34)cc21  Ki (Oprd1 (Rattus norvegicus, UniProt P33533); ligand displacement, radioligand; cell membranes): 0.006 µM
CC1(C)C[C@H]2[C@@H]3CC=C4C[C@@H](OC5CCCCO5)CC[C@]4(C)[C@H]3CC[C@]2(C)[C@H]1O (stereo partly shown)  Ki (OSBP (Homo sapiens, UniProt P22059); ligand displacement, radioligand): 0.022 µM
polymyxin B nonapeptide  Ki (lipopolysaccharide (Klebsiella pneumoniae ATCC 13883); binding, displacement): 26 ± 10 µM
CCCCN1C(=O)C(C=CC=CC=C2C(=O)N(c3ccc(S(=O)(=O)O)cc3)N=C2C)C(=O)N(CCCC)C1=O  Ki (SLC4A1 (Homo sapiens, UniProt P02730); 36Cl exchange flux, inhibitor, Dixon plot; human erythrocytes; 0 °C, external iodide at equilibrium): 0.0264 µM and 0.026 µM
O=C(NC(=S)NCCCc1c[nH]cn1)c1ccccc1  Ki (HRH1 (Homo sapiens, UniProt P35367); ligand displacement, radioligand; cell membranes): > 100 µM
O=C(O)C[C@H]1CCN[C@@H]1C(=O)O  Ki (Glutamate receptor ionotropic, kainate 3 (Rattus norvegicus, UniProt P42264); binding; Sf9 cells expressing homomeric receptor; added: [3H]-kainate): 0.51 µM
CO[C@H]1C[C@@H]2\C=C(C)/C=C/C=C\C(=O)N[C@H](c3ccccc3)C/C=C/CC[C@H](O)CC(=O)C2=C1O  Ki (Replicase polyprotein 1ab, main protease (Feline coronavirus, UniProt Q98VG9); enzyme activity, inhibitor, fluorescence): 11.7 µM
COc1cc(Cc2cnc(N)nc2N)c2c(c1OC)OC(C1CC1)C=C2 (stereo not shown)  Ki (Dihydrofolate reductase (Staphylococcus aureus, UniProt C7C2U7); inhibitor): 0.221 ± 0.006 µM
O=C(O)C[C@@H]1CC[C@H](NC(=O)Cc2cccs2)B(O)O1  Ki (ampC (Burkholderia multivorans, UniProt A0A0H3KN52); enzyme activity, inhibitor): 38 ± 4 µM
O=S(=O)(O)c1cc(N=C=S)ccc1C=Cc1ccc(N=C=S)cc1S(=O)(=O)O  Ki (folA (Escherichia coli, UniProt P0ABQ4); inhibitor; from IC50, non-competitive): 51 µM
N=C(N)NCc1ccc(C(=O)NCCCCC(NC(=O)NC(CCC(=O)O)C(=O)O)C(=O)O)cc1I (stereo not shown)  Ki (FOLH1 (Homo sapiens, UniProt Q04609); inhibitor, Amplex Red fluorescence; LNCaP cell extract; added: NAAG): 0.00045 µM
CC(C)C[C@H](N)C(=O)O  Ki (2-isopropylmalate synthase (leuA, Neisseria meningitidis serogroup B, UniProt Q9JZG1); enzyme activity, noncompetitive inhibitor, DTP-coupled; pH 7.5, 25 °C, wild-type enzyme, added: acetyl-CoA varied, α-ketoisovalerate 300 µM): 43 ± 4 µM
Fc1ccc2c(C3CCN(CCCCN4CCCCC4)CC3)noc2c1  Ki (HTR2A (Homo sapiens, UniProt P28223); ligand displacement, radioligand; cell membranes): 0.0348 µM
Nc1ccc(S(=O)(=O)O)cc1  Ki (Ubiquitin-associated and SH3 domain-containing protein B, phosphatase domain (UBASH3B, Homo sapiens, UniProt Q8TF42); phosphatase activity, competitive inhibitor; added: pNPP): 480 ± 55 µM
CN[C@@](C)(C[18F])C(=O)O  tissue uptake (SCID mouse U87 xenograft, lung; 30 min, post injection): 3.1 ± 0.2 %ID/g
Cc1cccc(NC(=O)c2ccc(OCc3ccccc3)cc2)n1  Ki (Grm5 (Rattus norvegicus, UniProt P31424); ligand displacement, radioligand; cell membranes): > 10 µM
C[C@H](N)Cn1ccc2cc(F)c(Cl)cc21  Ki (HTR1A (Homo sapiens, UniProt P08908); ligand displacement, radioligand; cell membranes): 6.68 µM
COc1ccc(C(=O)C=Cc2ccc(NC(=O)CN3CCN(C(C)=O)CC3)cc2)cc1OC  Ki (ACHE (Homo sapiens, UniProt P22303); enzyme activity, inhibitor): 0.047 µM
C=C[C@H]1CN2CC[C@H]1C[C@H]2[C@H](O)c1ccnc2ccccc12  Ki (SLC6A4 (Homo sapiens, UniProt P31645); transporter uptake, inhibitor, radiometric): 4.2 µM

A few entries again:
O=C(/C=C/c1ccoc1)N[C@H]1CC[C@@]2(O)[C@H]3Cc4cccc5c4[C@@]2(CCN3CC2CC2)[C@H]1O5  Ki (Oprk1; ligand displacement, radioligand): 0.0457 µM
N[C@@H](CC(=O)O)C(=O)O  Ki (pycA (Staphylococcus aureus, UniProt A0A0H3JRU9); pyruvate carboxylation, allosteric inhibitor, MDH-coupled): 18000 ± 1000 µM
O=S(=O)(O)c1cc(N=C=S)ccc1C=Cc1ccc(N=C=S)cc1S(=O)(=O)O  Ki (folA (Escherichia coli, UniProt P0ABQ4); inhibitor; from IC50, non-competitive): 51 µM
